Measurements gathered from unrelated publications.
Protocols differ between the studies behind these lines. Values joined by “and” are separate records of one study, mostly repeats; a detail may differ. ± marks the error that the study gave.

C[C@@H](CN1CC(=O)NC(=O)C1)N1CC(=O)NC(=O)C1
cytotoxicity (LUHMES MT1G-HiBiT neurons, differentiated; concentration not given): toxic

CCCN1CCCC[C@H]1C(=O)Nc1c(C)cccc1C
viability (PC-12; MTS; 1 to 3 mM, 24 h; relative to: prilocaine): no effect

Nc1nc(NS(=O)(=O)c2ccccc2)nc(-c2ccc(Cl)cc2)c1-c1nc2ccccc2s1
maximum non-toxic concentration (FRhK-4; cytotoxicity; 72 h): 100 µg/mL

CCCOC(=O)C1CCN(C(=O)c2ccc(N(C)Cc3cnc4nc(N)nc(N)c4n3)cc2)CC1
CC50 (THP-1-derived macrophages; MTT): 50 to 100 µM

C[C@@H]1O[C@@H](OC[C@H]2O[C@@H](Oc3c(-c4ccc(O)c(O)c4)oc4cc(O)cc(O)c4c3=O)[C@H](O)[C@@H](O)[C@@H]2O)[C@H](O)[C@H](O)[C@H]1O
Papp increase (Caco-2 monolayer; transwell permeability; 100 µg/mL, apical to basolateral, HBSS, DMSO 1%, together with: SDS 10 mg/mL; relative to: SDS alone): 28.3%

O=C(CS)NCCCCCC(=O)Nc1cccc2cccnc12
efflux ratio (Caco-2 monolayer; relative to: Papp B-A over Papp A-B): 1.85

NC1=NN(c2ccc(Oc3ccccc3)c(S(=O)(=O)O)c2)C(=O)C1
viability (human neural progenitor cells; 20 µM, 72 h): < 25%

COc1cc2ncnc(Nc3ccc(Oc4ccccc4)c(C)c3C)c2cc1OC.Cl
viability (LoVo (KRAS G13D); cell growth, resazurin; 1 µM, 72 h, together with: 0 nM trametinib; relative to: DMSO): 0.737 fraction of control

O=C(Nc1cc(F)c(F)c(F)c1)c1ccc(F)c(S(=O)(=O)NCc2cccc(B(O)O)c2)c1
CC50 (HepAD38 cells; CCK-8; 6 days): 8.03 ± 0.5 µM

Cc1cc2ccccc2n1CCNC(=O)c1ccc(N2CCC(O)CC2)cc1
cytotoxic concentration (C6 glioma; cell viability): > 100 µM

CCc1c(-c2ccccc2)c(-c2ccccc2)nn1-c1ccccc1-c1cccc(OCC(=O)O)c1
viability (mouse bone marrow macrophages; CCK-8; 2 µM, 4000 cells; relative to: untreated): 96.4% and 101% and 92.1% and 88.8% and 86.4% and 84.4%

Cc1ccc(S(=O)(=O)Nc2nc(N)c(-c3nc4ccccc4s3)c(-c3ccccc3)n2)cc1
maximum non-toxic concentration (FRhK-4; cytotoxicity; 72 h): 90 µg/mL

Nc1n[nH]c2c(-c3nc4ccccc4s3)c(N)n(NS(=O)(=O)c3ccccc3)c(=O)c12
maximum non-toxic concentration (FRhK-4; 72 h): 90 µg/mL

CCCC(CCC)NC(=O)c1ccc2c(c1)OCO2
relative cell growth (CHO-WBL; 0.56 mg/mL, 3 h, with rat liver S9; relative to: vehicle control): 37%

COc1ccc(Oc2ccc(CNCc3cnc4nc(N)nc(N)c4n3)cc2)cc1
CC50 (THP-1-derived macrophages; MTT): 12.5 to 25 µM

CCOc1c([C@H](C)n2nc(C)c3c(N)ncnc32)cc(Cl)c(F)c1[C@@H]1CNC(=O)C1
Cmin (patients, monotherapy; oral, 5 mg once daily, cycle 1 day 15): 127 nM

O=c1c(O[C@@H]2O[C@H](CO)[C@H](O)[C@H](O)[C@H]2O)c(-c2ccc(O)c(O)c2)oc2cc(O)cc(O)c12
Papp increase (Caco-2 monolayer; transwell permeability; 100 µg/mL, apical to basolateral, HBSS, DMSO 1%, together with: SDS 10 mg/mL; relative to: SDS alone): 5.3%

CN[C@H](CC(C)C)C(=O)N[C@H]1C(=O)N[C@@H](CC(N)=O)C(=O)N[C@H]2C(=O)N[C@H]3C(=O)N[C@H](C(=O)N[C@H](C(=O)O)c4cc(O)cc(O)c4-c4cc3ccc4O)[C@H](O)c3ccc(c(Cl)c3)Oc3cc2cc(c3O[C@@H]2O[C@H](CO)[C@@H](O)[C@H](O)[C@H]2O[C@H]2C[C@](C)(N)[C@H](O)[C@H](C)O2)Oc2ccc(cc2Cl)[C@H]1O
TC50 (ciPTEC overexpressing OAT-1; 24 h, 37 °C, serum-free medium): > 1000 µM

CC(=O)CNc1nc(NS(=O)(=O)c2ccccc2)ncc1-c1nc2ccccc2s1
maximum non-toxic concentration (FRhK-4; cytotoxicity; 72 h): 80 µg/mL

CC(C)c1cnn2c(NCc3ccccc3-n3cccn3)nc(OC3CCCNC3)nc12 (stereo not shown)
CC50 (primary human fibroblasts; uninfected): > 10 µM

CSc1c(-c2nc3ccccc3s2)c(N)n(NS(=O)(=O)c2ccccc2)c(=O)c1C#N
maximum non-toxic concentration (FRhK-4; 72 h): 100 µg/mL

NC(=O)C1CCCN1C(=O)Cc1ccc(N(CCCO)Cc2cnc3nc(N)nc(N)c3n2)cc1 (stereo not shown)
CC50 (THP-1-derived macrophages; MTT): > 100 µM

O=C(Nc1ccc(F)c(Br)c1)c1ccc2c(c1)C(=O)NC2=O
viability (SH-SY5Y; MTT; 1 to 20 µM, 24 h): not toxic

Cc1cc(C(=O)NC(C)(C)COc2cccc3c2C(N)=NS(=O)(=O)N3)cc(C)n1
cytotoxicity (human peripheral blood lymphocytes; CBPI, concurrent micronucleus test; 1500 µg/mL, 4 h, together with: rat liver S9; relative to: vehicle control): -4%

CSc1nc(NS(=O)(=O)c2ccccc2)nc(N)c1-c1nc2ccccc2s1
maximum non-toxic concentration (FRhK-4; cytotoxicity; 72 h): 90 µg/mL

COc1cc(/C=C/C(=O)/C=C/c2ccc(O)c(OC)c2)ccc1O
viability (WRL68; MTT; 3.2 µg/mL, 48 h, 10% fetal bovine serum): 10.5% and 10.7%

CCOC(=O)C1CCN(C(=O)c2ccc(N(CC)Cc3cnc4nc(N)nc(N)c4n3)cc2)CC1
CC50 (THP-1-derived macrophages; MTT): 50 to 100 µM

N#Cc1cc(C#N)c(=O)n(NS(=O)(=O)c2ccccc2)c1N
maximum non-toxic concentration (FRhK-4; 72 h): 100 µg/mL

O=C(Nc1ccc(C2CCCCC2)cc1)[C@H]1CC1(F)F
hepatic clearance (hepatocyte stability; cryopreserved human hepatocytes; 1 µM): 18 mL/min/kg

Cc1ccc(-c2nc(NS(=O)(=O)c3ccccc3)nc(N)c2-c2nc3ccccc3s2)cc1
maximum non-toxic concentration (FRhK-4; cytotoxicity; 72 h): 90 µg/mL

Cn1nc2c(=O)n(C3CC3)ncc2c1[C@](O)(c1cnc(C(F)(F)F)c(Cl)c1)C(F)(F)F
Papp (B-A) (Caco-2 monolayer): 75.1 ×10⁻⁶ cm/s

CC1(C)OB(c2ccc(CNS(=O)(=O)c3cc(C(=O)Nc4cc(F)c(F)c(F)c4)ccc3F)cc2)OC1(C)C
CC50 (HepAD38 cells; CCK-8; 6 days): 5.71 ± 1.36 µM

CN1CCN(C(=O)c2ccc(C3CCCCC3)cc2)CC1
hepatic clearance (hepatocyte stability; cryopreserved mouse hepatocytes; 1 µM): 76 mL/min/kg

Nc1nc(NS(=O)(=O)c2ccccc2)nc(-c2ccc(F)cc2)c1-c1nc2ccccc2s1
maximum non-toxic concentration (FRhK-4; cytotoxicity; 72 h): 100 µg/mL

CCOC(=O)c1cc(C#N)c(=O)n(NS(=O)(=O)c2ccccc2)c1N
maximum non-toxic concentration (FRhK-4; 72 h): 100 µg/mL

COC(=O)C1CCN(C(=O)c2ccc(SCc3cnc4nc(N)nc(N)c4n3)nc2)CC1
CC50 (THP-1-derived macrophages; MTT): 50 to 100 µM

CC(=O)N[C@H]1[C@H]([C@H](O)[C@H](O)CO)OC(C(=O)O)=C[C@@H]1N=C(N)N
Papp (Caco-2 monolayer; HBSS without Ca2+; 180 min, apical to basolateral): 2.42 ± 0.161 ×10⁻⁶ cm/s

Cc1ccc(C(=O)CNc2nc(NS(=O)(=O)c3ccccc3)ncc2-c2nc3ccccc3s2)cc1
maximum non-toxic concentration (FRhK-4; cytotoxicity; 72 h): 100 µg/mL

Nc1nc(N)c2nc(C(=O)NCc3cccc(C(F)(F)F)c3)cnc2n1
CC50 (THP-1-derived macrophages; MTT): 12.5 to 25 µM

c1ccc(CN(CCN(Cc2ccccn2)Cc2ccccn2)Cc2ccccn2)nc1
cytotoxicity (LUHMES MT1G-HiBiT neurons, differentiated; concentration not given): toxic

COc1ccc(-c2nc(N)nc(N)c2-c2nc3ccccc3s2)cc1
maximum non-toxic concentration (FRhK-4; cytotoxicity; 72 h): 90 µg/mL

Nc1nc(N)c2nc(C(=O)NCc3ccccc3)cnc2n1
CC50 (THP-1-derived macrophages; MTT): 12.5 to 25 µM

CCSC(SCC)=C(C#N)c1nc2ccccc2s1
maximum non-toxic concentration (FRhK-4; 72 h): 110 µg/mL

COc1cc(/C=C/C(=O)C(=Cc2ccccc2)C(=O)/C=C/c2ccc(O)c(OC)c2)ccc1O
viability (WRL68; MTT; 0.8 µg/mL, 48 h, 10% FBS): 11.2% and 10.6%

COC(=O)C1CCN(C(=O)Cc2ccc(NCc3cnc4nc(N)nc(N)c4n3)cc2)CC1
CC50 (THP-1-derived macrophages; MTT): > 100 µM

CCSc1c(-c2nc3ccccc3s2)c(N)n(NS(=O)(=O)c2ccc(C)cc2)c(=O)c1C#N
maximum non-toxic concentration (FRhK-4; 72 h): 120 µg/mL

A few entries again:
Cc1ccc(C(=O)CNc2nc(NS(=O)(=O)c3ccccc3)ncc2-c2nc3ccccc3s2)cc1
maximum non-toxic concentration (FRhK-4; cytotoxicity; 72 h): 100 µg/mL

Cc1cc(C(=O)NC(C)(C)COc2cccc3c2C(N)=NS(=O)(=O)N3)cc(C)n1
cytotoxicity (human peripheral blood lymphocytes; CBPI, concurrent micronucleus test; 1500 µg/mL, 4 h, together with: rat liver S9; relative to: vehicle control): -4%

O=C(CS)NCCCCCC(=O)Nc1cccc2cccnc12
efflux ratio (Caco-2 monolayer; relative to: Papp B-A over Papp A-B): 1.85

COC(=O)C1CCN(C(=O)Cc2ccc(NCc3cnc4nc(N)nc(N)c4n3)cc2)CC1
CC50 (THP-1-derived macrophages; MTT): > 100 µM
